{"data": "Measurements from different studies", "note": "A part holds a random share of what one study measured."}
{"data": "Series 1", "target": "PABPC1L2, full length, GST fusion (mouse, UniProt A0ABA7IW68)", "method": "RNAcompete", "molecule type": "RNA", "medium": "in vitro", "tested at": "20 nM", "setting": "7-mer, probes averaged, single round", "reference": "mean of 7-mers", "direction": "higher = stronger binding", "Target sequence (chain)": "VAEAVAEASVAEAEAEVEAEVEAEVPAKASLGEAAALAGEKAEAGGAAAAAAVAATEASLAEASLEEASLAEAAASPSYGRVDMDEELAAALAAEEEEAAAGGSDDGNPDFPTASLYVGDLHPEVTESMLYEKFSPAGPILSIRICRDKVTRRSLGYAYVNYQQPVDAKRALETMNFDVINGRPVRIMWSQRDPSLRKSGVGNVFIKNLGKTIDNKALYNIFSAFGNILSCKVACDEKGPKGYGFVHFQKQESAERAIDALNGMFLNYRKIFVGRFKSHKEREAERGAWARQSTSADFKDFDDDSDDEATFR"}
{"Sequence": "GGCUUUU", "7-mer Z-score": -0.0881}
{"Sequence": "UGUCGUA", "7-mer Z-score": -0.313}
{"Sequence": "GUCAUUG", "7-mer Z-score": -0.34}
{"Sequence": "UGGAAUU", "7-mer Z-score": -0.155}
{"data": "Series 2", "target": "Interferon regulatory factor 5, full length, phosphomimetic (IRF5, Homo sapiens, UniProt Q13568-2, residues 1-514, K96S/S451D/S453D/S456D/S462D)", "method": "protein-binding microarray", "molecule type": "double-stranded DNA, one strand shown", "medium": "in vitro", "tested at": "250 nM", "setting": "60-bp whole probe", "with": "salmon DNA 0.4 mg/ml", "reference": "random background probes", "direction": "higher = stronger binding"}
{"Sequence": "GCCTAGCACGACGGTATCCTTTTGCTGACGTGCTAGGTCTTGATTCGCTTGACGCTGCTG", "log fluorescence [z-score]": 0.444}
{"Sequence": "GCCTAGCACTTAGGTAGCGGGACTGGGTTAGTGCTAGTCTTGATTCGCTTGACGCTGCTG", "log fluorescence [z-score]": -0.397}
{"Sequence": "GCCTAGCACGACGGTTTACTTCTCCTGACGTGCTAGGTCTTGATTCGCTTGACGCTGCTG", "log fluorescence [z-score]": 0.0776}
{"Sequence": "GCCTAGCACGTCGGTTCCGGTTTCGGGACGTGCTAGGTCTTGATTCGCTTGACGCTGCTG", "log fluorescence [z-score]": 5.7}
{"data": "Series 3", "target": "RNA binding protein fox-1 homolog 2, RRM domain, GST-SBP tag (RBFOX2, Homo sapiens, UniProt O43251-10, residues 100-194)", "method": "RNA Bind-n-Seq", "molecule type": "RNA", "medium": "in vitro", "tested at": "365 nM", "setting": "natural RNA segment, single round, ends assumed", "reference": "no-protein control", "direction": "higher = stronger binding", "Construct (chain)": "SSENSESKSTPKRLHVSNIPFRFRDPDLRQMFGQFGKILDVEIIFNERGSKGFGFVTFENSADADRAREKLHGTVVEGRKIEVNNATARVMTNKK"}
{"Sequence": "GGGAGUUCUACAGUCCGACGAUCUUGUUCCGGUUAAUUCCAGAAGACAUUUCAAACAUUUUUCUUACACCAUAUAAUAAAAAUACUUAACUAAAUUGACAGUUAUAAAAAUAAAUCAGUGAAAUGUACCUUAUUGGAAUUCUCGGGUGCCAA", "RBNS enrichment (R)": 0.566}
{"Sequence": "GGGAGUUCUACAGUCCGACGAUCCUCUAAGAACACUGAAAAAUCCACCGAUUUUUUGGGUAAGCUUCUUGGCAAUACCCUGUGGAUCUGAAACAGCUAAAAAAAUGAAUUUGAAUUGCGCCAGAUAGGUCAAUUGGAAUUCUCGGGUGCCAA", "RBNS enrichment (R)": 0.288}
{"Sequence": "GGGAGUUCUACAGUCCGACGAUCACCCUUCCGUUGAUUAGCAAUGACUGUGCUUGACCCACCCACCUACCCUACUAAUGAAUUUCUGUAGAGUGGAUGGACGGGUUUGAGGGAAGAAGGGUGGAGGUGGAUUAUGGAAUUCUCGGGUGCCAA", "RBNS enrichment (R)": 0.38}
{"data": "Other studies, line by line"}
{"Molecule": "PhoQ, residues 284 288 289 292 302 303 AQGLTV", "target": "PhoP, residues 12 14 15 18 19 LHSVQ (Escherichia coli, UniProt P23836)", "assay": "Sort-seq, refers to: YFP reporter", "test system": "E. coli", "setting": "PhoQ-PhoP variant library, with: 10 µM Mg2+", "scale": "reference: high Mg2+ state, higher = stronger signaling", "endpoint": "fold induction", "value": 0.758}
{"note": "Some of these lines once more (series 2):"}
{"Sequence": "GCCTAGCACTTAGGTAGCGGGACTGGGTTAGTGCTAGTCTTGATTCGCTTGACGCTGCTG", "log fluorescence [z-score]": -0.397}
